{"data": "Assay results pooled from the literature", "note": "Numbered parts are unrelated; each lists some results of a single study. Values joined by “and” are separate records of one study, mostly repeats; a detail may differ.", "sequence of UniProt P16234 (whole entry, looked up)": "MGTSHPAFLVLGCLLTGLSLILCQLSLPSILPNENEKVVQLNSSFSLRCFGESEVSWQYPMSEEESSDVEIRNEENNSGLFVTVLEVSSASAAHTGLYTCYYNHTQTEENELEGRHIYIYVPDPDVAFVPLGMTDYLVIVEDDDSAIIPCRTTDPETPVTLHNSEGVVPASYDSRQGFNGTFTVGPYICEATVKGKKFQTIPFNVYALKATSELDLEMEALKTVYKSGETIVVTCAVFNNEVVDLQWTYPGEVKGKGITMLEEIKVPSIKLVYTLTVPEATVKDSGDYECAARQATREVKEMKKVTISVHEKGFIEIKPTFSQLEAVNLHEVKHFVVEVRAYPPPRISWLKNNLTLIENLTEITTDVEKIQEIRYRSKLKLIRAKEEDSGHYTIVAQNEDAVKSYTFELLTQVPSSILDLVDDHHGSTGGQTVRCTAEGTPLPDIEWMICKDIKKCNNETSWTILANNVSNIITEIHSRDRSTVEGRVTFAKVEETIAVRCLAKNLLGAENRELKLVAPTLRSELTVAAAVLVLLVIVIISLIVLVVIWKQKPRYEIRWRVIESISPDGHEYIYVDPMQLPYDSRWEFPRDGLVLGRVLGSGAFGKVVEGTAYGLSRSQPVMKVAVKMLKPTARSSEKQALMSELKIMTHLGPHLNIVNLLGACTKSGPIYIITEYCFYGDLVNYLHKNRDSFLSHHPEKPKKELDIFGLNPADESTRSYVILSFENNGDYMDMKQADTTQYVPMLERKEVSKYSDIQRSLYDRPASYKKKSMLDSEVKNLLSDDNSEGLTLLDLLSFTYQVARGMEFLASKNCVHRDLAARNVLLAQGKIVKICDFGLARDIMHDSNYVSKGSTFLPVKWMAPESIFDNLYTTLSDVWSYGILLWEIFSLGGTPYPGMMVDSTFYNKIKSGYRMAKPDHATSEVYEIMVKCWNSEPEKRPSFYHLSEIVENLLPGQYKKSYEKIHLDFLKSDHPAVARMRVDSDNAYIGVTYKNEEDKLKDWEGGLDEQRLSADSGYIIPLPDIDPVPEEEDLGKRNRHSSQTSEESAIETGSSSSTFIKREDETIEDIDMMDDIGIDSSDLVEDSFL", "sequence of UniProt P37023 (whole entry, looked up)": "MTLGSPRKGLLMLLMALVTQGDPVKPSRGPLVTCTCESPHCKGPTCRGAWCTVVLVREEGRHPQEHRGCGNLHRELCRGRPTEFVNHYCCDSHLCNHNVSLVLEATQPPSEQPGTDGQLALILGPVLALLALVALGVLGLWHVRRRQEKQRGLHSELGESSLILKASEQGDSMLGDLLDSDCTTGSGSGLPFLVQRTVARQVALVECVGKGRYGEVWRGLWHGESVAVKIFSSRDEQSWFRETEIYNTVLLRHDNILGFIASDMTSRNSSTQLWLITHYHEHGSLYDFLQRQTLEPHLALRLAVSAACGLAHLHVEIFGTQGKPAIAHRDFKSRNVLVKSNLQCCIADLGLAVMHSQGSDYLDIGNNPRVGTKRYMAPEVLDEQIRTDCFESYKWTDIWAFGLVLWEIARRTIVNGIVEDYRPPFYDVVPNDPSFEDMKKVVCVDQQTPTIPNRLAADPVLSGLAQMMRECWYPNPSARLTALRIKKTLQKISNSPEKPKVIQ", "sequence of UniProt Q16584 (whole entry, looked up)": "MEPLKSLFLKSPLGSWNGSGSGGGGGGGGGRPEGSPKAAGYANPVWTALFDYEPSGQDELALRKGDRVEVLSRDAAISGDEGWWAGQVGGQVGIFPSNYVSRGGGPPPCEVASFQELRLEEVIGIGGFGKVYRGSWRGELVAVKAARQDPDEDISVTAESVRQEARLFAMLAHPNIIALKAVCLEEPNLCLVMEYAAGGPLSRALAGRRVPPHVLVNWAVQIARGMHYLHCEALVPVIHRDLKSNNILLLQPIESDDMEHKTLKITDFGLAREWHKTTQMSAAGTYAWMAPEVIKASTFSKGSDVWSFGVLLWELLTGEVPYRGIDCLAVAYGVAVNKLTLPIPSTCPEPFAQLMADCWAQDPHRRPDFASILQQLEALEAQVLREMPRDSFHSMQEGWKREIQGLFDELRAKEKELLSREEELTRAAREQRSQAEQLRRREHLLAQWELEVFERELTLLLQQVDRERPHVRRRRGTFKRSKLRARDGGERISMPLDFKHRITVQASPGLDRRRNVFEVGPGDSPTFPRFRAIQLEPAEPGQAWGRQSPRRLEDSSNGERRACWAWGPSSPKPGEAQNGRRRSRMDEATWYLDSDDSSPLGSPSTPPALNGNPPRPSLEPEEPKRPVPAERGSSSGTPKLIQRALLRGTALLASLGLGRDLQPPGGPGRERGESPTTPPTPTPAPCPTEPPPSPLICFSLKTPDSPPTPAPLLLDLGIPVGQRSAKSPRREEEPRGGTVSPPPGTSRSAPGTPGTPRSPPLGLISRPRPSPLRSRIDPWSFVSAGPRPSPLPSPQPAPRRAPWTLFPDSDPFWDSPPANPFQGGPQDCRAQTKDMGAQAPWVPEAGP", "sequence of UniProt P53667 (whole entry, looked up)": "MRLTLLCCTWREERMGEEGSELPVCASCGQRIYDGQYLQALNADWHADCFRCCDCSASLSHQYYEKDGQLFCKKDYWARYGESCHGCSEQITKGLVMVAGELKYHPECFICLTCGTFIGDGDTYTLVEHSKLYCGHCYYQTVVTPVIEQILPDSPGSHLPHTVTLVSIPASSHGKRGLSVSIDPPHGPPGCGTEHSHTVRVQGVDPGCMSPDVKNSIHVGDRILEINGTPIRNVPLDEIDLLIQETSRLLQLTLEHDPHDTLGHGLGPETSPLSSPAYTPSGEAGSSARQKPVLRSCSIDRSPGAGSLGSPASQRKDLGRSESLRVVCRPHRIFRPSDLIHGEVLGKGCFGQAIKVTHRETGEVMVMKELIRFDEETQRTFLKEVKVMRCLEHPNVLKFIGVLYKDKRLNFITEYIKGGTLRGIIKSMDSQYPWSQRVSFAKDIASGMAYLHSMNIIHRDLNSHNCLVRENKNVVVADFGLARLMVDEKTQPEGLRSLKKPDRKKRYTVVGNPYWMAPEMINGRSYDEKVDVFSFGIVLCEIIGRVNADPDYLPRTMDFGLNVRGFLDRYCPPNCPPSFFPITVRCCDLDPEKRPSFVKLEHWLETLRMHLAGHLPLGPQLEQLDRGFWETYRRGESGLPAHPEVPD", "sequence of UniProt P53671 (whole entry, looked up)": "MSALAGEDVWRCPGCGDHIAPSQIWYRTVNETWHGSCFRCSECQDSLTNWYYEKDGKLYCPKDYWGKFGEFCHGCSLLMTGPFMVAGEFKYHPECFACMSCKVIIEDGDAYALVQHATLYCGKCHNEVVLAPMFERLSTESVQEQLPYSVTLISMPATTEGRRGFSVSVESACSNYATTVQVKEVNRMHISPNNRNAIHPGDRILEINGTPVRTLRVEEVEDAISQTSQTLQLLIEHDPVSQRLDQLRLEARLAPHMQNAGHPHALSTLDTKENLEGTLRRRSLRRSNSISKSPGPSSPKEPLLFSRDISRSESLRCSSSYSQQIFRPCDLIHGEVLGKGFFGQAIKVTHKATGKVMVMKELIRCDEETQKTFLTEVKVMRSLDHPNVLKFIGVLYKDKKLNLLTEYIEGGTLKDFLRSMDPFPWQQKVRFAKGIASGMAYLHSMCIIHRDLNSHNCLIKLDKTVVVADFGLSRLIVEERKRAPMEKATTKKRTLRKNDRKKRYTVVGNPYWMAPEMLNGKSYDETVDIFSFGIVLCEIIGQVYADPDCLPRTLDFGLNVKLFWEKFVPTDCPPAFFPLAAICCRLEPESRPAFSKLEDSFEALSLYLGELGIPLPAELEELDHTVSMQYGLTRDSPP", "sequence of UniProt Q99640 (whole entry, looked up)": "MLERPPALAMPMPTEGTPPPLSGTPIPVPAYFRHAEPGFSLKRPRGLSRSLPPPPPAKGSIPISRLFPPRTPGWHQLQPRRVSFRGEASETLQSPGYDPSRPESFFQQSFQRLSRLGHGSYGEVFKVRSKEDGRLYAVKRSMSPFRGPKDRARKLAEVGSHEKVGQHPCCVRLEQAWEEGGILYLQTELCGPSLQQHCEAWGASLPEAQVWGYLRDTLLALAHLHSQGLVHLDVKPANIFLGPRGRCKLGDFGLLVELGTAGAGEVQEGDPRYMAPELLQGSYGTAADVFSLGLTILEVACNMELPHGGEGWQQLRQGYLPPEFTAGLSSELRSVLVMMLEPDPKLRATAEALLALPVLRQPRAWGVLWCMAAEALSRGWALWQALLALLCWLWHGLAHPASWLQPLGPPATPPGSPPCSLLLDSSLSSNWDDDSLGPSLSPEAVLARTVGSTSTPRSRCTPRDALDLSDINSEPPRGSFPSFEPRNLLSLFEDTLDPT"}
{"data": "Sample 1", "organism": "Sarcocystis neurona", "effect on": "parasite growth", "tested at": "concentration not given", "notes": "second screen", "relative to": "untreated"}
{"Structure (SMILES)": "C#C[C@]1(O)CC[C@H]2[C@@H]3CCC4=CC(=O)CC[C@@H]4[C@H]3CC[C@@]21C", "log2 fold change": 0.27}
{"Structure (SMILES)": "Cc1sc(N)c(C(=O)c2cccc(C(F)(F)F)c2)c1C", "log2 fold change": 0.21}
{"Structure (SMILES)": "CC[C@@H]1C(=O)OC[C@@H]1Cc1cncn1C.Cl", "log2 fold change": 0.23}
{"data": "Sample 2", "target": "Beta-1 adrenergic receptor (ADRB1, Homo sapiens, UniProt P08588)", "action": "antagonist", "sequence of UniProt P08588 (whole entry, looked up)": "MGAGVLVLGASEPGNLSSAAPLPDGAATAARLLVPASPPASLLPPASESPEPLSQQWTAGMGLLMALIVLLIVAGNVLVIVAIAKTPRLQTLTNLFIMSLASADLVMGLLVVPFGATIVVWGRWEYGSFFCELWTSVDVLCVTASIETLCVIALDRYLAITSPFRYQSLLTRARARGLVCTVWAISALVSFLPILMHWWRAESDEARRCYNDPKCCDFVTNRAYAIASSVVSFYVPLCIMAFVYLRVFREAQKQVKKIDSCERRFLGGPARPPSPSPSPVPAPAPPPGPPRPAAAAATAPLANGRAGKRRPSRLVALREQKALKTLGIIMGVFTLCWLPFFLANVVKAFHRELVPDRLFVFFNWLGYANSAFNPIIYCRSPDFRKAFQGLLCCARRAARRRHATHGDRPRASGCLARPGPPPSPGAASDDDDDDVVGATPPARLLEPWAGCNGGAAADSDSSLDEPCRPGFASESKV"}
{"SMILES": "Cc1ccsc1-c1n[nH]c2ncc(-c3cnn(C)c3C)nc12", "IC50": "≥ 100 µM"}
{"SMILES": "Cc1nn(C)c2nc(NCCCC3CCOC3)sc12 (centres unmarked)", "IC50": "≥ 100 µM"}
{"SMILES": "COCCN1CCNc2nc(COc3cccc(N4CCOCC4)c3)n(Cc3ccccc3)c2C1=O", "IC50": "≥ 100 µM"}
{"SMILES": "COc1ccccc1N1CCN(C(=O)c2ccc(F)cc2)CC1", "IC50": "≥ 100 µM"}
{"data": "Sample 3", "target": "Histone acetyltransferase KAT6A, winged helix 1, GST fusion (KAT6A, Homo sapiens, UniProt Q92794, residues 1-85)", "method": "protein binding microarray", "form": "double-stranded DNA, one strand shown", "medium": "in vitro", "tested at": "not given", "notes": "8-mer, flanks averaged, mean of 2 arrays, mostly near background", "relative to": "not given", "reading": "higher = stronger binding", "Construct (chain)": "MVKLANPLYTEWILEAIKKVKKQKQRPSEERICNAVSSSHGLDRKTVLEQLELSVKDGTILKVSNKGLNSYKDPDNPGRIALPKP"}
{"Strand": "CGACATAG", "E-score": -0.0731}
{"Strand": "CTGGGCCC", "E-score": -0.119}
{"Strand": "ACGACGAC", "E-score": -0.149}
{"Strand": "AGACAGAT", "E-score": -0.326}
{"Strand": "ACAGGCTC", "E-score": -0.0314}
{"Strand": "GTAGCCAA", "E-score": -0.148}
{"Strand": "GCCTATTA", "E-score": -0.0904}
{"Strand": "ATATACAG", "E-score": -0.0833}
{"data": "Sample 4", "species": "mouse", "medium": "microsomes or S9", "tested at": "2 µM", "time": "0.5 h"}
{"Structure (SMILES)": "COc1cccc(CNC(=O)N2Cc3c(sc4c3CCCC4)-n3cccc3C2C)c1 (centres unmarked)", "remaining compound [%]": 0.108}
{"Structure (SMILES)": "COc1ccc(-n2ccnc2-c2nccn2[C@@H]2c3ccccc3C[C@@H]2O)cc1", "remaining compound [%]": 0.439}
{"Structure (SMILES)": "O=C(CCCOc1ccc(F)cc1F)Nc1ccc2nc[nH]c(=O)c2c1", "remaining compound [%]": 33.4}
{"data": "Sample 5", "Compound": "C[C@@H](c1cccc(C#N)c1)n1cc(Cl)cc(C(N)=O)c1=N", "tested at": "1 µM"}
{"target": "MAPKAPK2 (Homo sapiens, UniProt P49137)", "assay": "cell-free assay, competition with immobilised ligand", "remaining binding": "97%"}
{"target": "MAP3K11 (Homo sapiens, UniProt Q16584)", "assay": "cell-free assay, competition with immobilised ligand", "remaining binding": "100%"}
{"target": "RIOK3 (Homo sapiens, UniProt O14730)", "assay": "cell-free assay, competition with immobilised ligand", "remaining binding": "87%"}
{"target": "KIT (Homo sapiens, UniProt P10721)", "assay": "cell-free assay, competition with immobilised ligand", "remaining binding": "93%"}
{"target": "LIM domain kinase 1 (LIMK1, Homo sapiens, UniProt P53667)", "assay": "cell-free assay, competition with immobilised ligand", "remaining binding": "100%"}
{"target": "CDK13 (Homo sapiens, UniProt Q14004)", "assay": "cell-free assay, competition with immobilised ligand", "remaining binding": "100%"}
{"target": "STK11 (Homo sapiens, UniProt Q15831)", "assay": "cell-free assay, competition with immobilised ligand", "remaining binding": "74%"}
{"target": "PDGFRA (Homo sapiens, UniProt P16234)", "assay": "cell-free assay, competition with immobilised ligand", "remaining binding": "100%"}
{"target": "GRK2 (Homo sapiens, UniProt P25098)", "assay": "cell-free assay, competition with immobilised ligand", "remaining binding": "78%"}
{"target": "LIM domain kinase 2 (LIMK2, Homo sapiens, UniProt P53671)", "assay": "cell-free assay, competition with immobilised ligand", "remaining binding": "100%"}
{"target": "PIM3 (Homo sapiens, UniProt Q86V86)", "assay": "cell-free assay, competition with immobilised ligand", "remaining binding": "100%"}
{"target": "CDC42BPB (Homo sapiens, UniProt Q9Y5S2)", "assay": "cell-free assay, competition with immobilised ligand", "remaining binding": "100%"}
{"target": "CSNK1G1 (Homo sapiens, UniProt Q9HCP0)", "assay": "cell-free assay, competition with immobilised ligand", "remaining binding": "82%"}
{"target": "CDC42BPG (Homo sapiens, UniProt Q6DT37)", "assay": "competition binding", "remaining binding": "100%"}
{"target": "ACVRL1 (Homo sapiens, UniProt P37023)", "assay": "binding, competition with immobilised ligand", "remaining binding": "80%"}
{"target": "Tyrosine-protein kinase ABL1, phosphorylated (ABL1, Homo sapiens, UniProt P00519, E255K)", "assay": "binding, competition with immobilised ligand", "remaining binding": "82%"}
{"target": "PKMYT1 (Homo sapiens, UniProt Q99640)", "assay": "cell-free assay, competition with immobilised ligand", "remaining binding": "100%"}
{"target": "TRPM6 (Homo sapiens, UniProt Q9BX84)", "assay": "cell-free assay, competition with immobilised ligand", "remaining binding": "71%"}
{"data": "Other studies, line by line", "cell line": "mouse MPNST tumor cells", "method": "high-content immunofluorescence imaging", "refers to": "nuclear SOX9", "tested at": "10 µM", "time": "12 h", "notes": "mean of 2 replicates", "relative to": "DMSO control", "reading": "higher = more nuclear SOX9"}
{"Compound": "O=C(O)[C@H]1CCCC[C@H]1C(=O)N1CCc2ccccc2[C@H]1CN1C(=O)c2ccccc2C1=O", "nuclear SOX9 intensity": "96.6 % of DMSO"}
{"Compound": "C#CCN(C)Cc1ccccc1", "nuclear SOX9 intensity": "94.2 % of DMSO and 114 % of DMSO"}
{"note": "Excerpt of the above (sample 2):"}
{"SMILES": "COc1ccccc1N1CCN(C(=O)c2ccc(F)cc2)CC1", "IC50": "≥ 100 µM"}
{"SMILES": "Cc1nn(C)c2nc(NCCCC3CCOC3)sc12 (centres unmarked)", "IC50": "≥ 100 µM"}
{"SMILES": "Cc1ccsc1-c1n[nH]c2ncc(-c3cnn(C)c3C)nc12", "IC50": "≥ 100 µM"}
